Measured values pooled from the literature.
Numbered parts are unrelated; each lists some results of a single study.

Series 1 — method: protein-binding microarray; form: double-stranded DNA, one strand shown; matrix: in vitro; concentration: 2200 nM top; setting: 60-bp whole probe; added: salmon DNA 0.4 mg/ml; relative to: random background probes; direction: higher = stronger binding; endpoint: fitted relative affinity; constant ends, left off below: GCCTAGCAC … GTCTTGATTCGCTTGACGCTGCTG
Target: Interferon regulatory factor 7, full length, phosphomimetic (IRF7, Homo sapiens, UniProt Q92985, residues 1-503, S471D/S472D/S475D/S476D/S477D/S483D/S484D/S487D)
Residues (chain): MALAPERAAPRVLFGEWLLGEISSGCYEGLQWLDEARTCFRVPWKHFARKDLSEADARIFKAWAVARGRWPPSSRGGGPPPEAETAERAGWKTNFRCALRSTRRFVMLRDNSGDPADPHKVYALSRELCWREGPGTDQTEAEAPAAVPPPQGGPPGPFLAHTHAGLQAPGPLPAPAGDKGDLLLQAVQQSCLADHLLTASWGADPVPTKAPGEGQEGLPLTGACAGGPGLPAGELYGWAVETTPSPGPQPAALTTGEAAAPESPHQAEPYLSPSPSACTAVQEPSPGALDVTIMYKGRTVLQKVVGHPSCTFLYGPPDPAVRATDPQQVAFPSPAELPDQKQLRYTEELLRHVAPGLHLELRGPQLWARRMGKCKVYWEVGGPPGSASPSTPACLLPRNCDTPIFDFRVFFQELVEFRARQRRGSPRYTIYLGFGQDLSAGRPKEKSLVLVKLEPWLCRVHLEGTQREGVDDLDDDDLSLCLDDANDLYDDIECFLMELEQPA
TTAGGACTGCAACTGCTTTAGTGCTAG: -0.201 z-score
GACGGACTGGGTTTTCGGGACGTGCTA: 0.733 z-score
TTGTTTTTTGGTTTCTGGTTGTGCTAG: 6.09 z-score
GACGGTATCAGGTTTCGGGACGTGCTA: 2.13 z-score
TTAGTTCTCAGTCTCGATTAGTGCTAG: 1.16 z-score
GCGCCTGTAGCCCCTCCAGGGTGCTAG: -0.433 z-score
CCATTTTGTGTTTTCATTTTGTGCTAG: 5.72 z-score
GACAGTCTCGGTATCGGGACGTGCTAG: 0.563 z-score

Series 2 — method: RNA Bind-n-Seq; form: RNA; matrix: in vitro; concentration: 20 nM; setting: 6-mer, flanks averaged, single round; added: 150 mM KCl; relative to: input library; direction: higher = stronger binding; endpoint: 6-mer enrichment (R)
Target: TAR DNA-binding protein 43, full length, His tag (TARDBP, Homo sapiens, UniProt Q13148, residues 1-414)
UUGUGC: 0.801
AGACGA: 0.836
ACUAAC: 0.616
ACCAAC: 0.653
GCCAGC: 0.972
UUCGGG: 1.65
AAGGCA: 0.845
UCAUAG: 0.626

Series 3 — method: aptamer microarray, sandwich; form: DNA with 2'F-ANA; matrix: in vitro; concentration: 200 nM; added: Cy3 exosite-II aptamer, 400 nM; direction: higher = stronger binding; endpoint: mean fluorescence intensity; strand: GGTTGGTGTGGTTGG
Target: Prothrombin, mature alpha-thrombin (F2, Homo sapiens, UniProt P00734)
Setting: whole 15-mer aptamer, many near background
2'F-ANA at 1 2 3 4 5 6 7 9 11 12 13: 74.5 a.u.
2'F-ANA at 2 3 4 6 7 8 9 11 15: 458 a.u.
2'F-ANA at 4 5 9 10 15: 43 a.u.
2'F-ANA at 4 5 6 9 11 13 14 15: 47.4 a.u.
2'F-ANA at 1 2 5 9 12 15: 105 a.u.
2'F-ANA at 3 4 6 7 11 12 13: 623 a.u.
2'F-ANA at 1 2 3 7 9 10 13 15: 83.4 a.u.
2'F-ANA at 5 7 11 12 15: 119 a.u.

Other studies, line by line
Cc1nc(C2=C(O)CN(C3CS(=O)(=O)CC3O)C2=N)sc1C (stereo not shown)  remaining compound (mouse, microsomes or S9; 2 µM, 0.5 h): 70.4%

A few entries again (series 3):
2'F-ANA at 4 5 6 9 11 13 14 15: 47.4 a.u.
2'F-ANA at 3 4 6 7 11 12 13: 623 a.u.
